# Published values pooled from the literature.
# A part holds a random share of what one study measured.

# Study 1 — method: RNA Bind-n-Seq; form: RNA; medium: in vitro; tested at: 365 nM; baseline: no-protein control; reading: higher = stronger binding
# Target: RNA binding protein fox-1 homolog 2, RRM domain, GST-SBP tag (RBFOX2, Homo sapiens, UniProt O43251-10, residues 100-194)
# Setting: natural RNA segment, single round, ends assumed
# All sequences stand within: GGGAGUUCUACAGUCCGACGAUC … UGGAAUUCUCGGGUGCCAA
# Residues (chain): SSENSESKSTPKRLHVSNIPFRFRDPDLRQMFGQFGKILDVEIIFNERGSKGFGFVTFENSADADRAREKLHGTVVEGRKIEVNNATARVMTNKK
Oligonucleotide,RBNS enrichment (R)
UUGUUUUCCAAUGAUGUGUAUUUGGGGGGAAGGGAGGAUUGCUUGUAAUCUGGUGUUGAACAACUAAGUCAGUAAUUGUCCUGUCUUUCAAACCAGUUAGCAACACAAUA,0.527
UCCUUGGAACCAUCUCUGAAUUCUGAAUAGCUGACAACCCCCAAUGUUAUCCACUCUGUUGCUUUUGUCUGGAAAACUCUACAGUGUUUGUGGGAUGUCCCCAAAGGAAA,0.385
UCUUAAUAUUGUCCAAUGUUUGGUGUUAUCUGCAUUGUUUUUUGUUUUUUUAAUUGUGGUUGUUCUGACGUGUGAAAUUUAAGGAAAGAGCCAUUUUUUAAAAAUGCCGA,0.747
UGCAGUUUCUGCCUUUAAGCCAAAGAAACAAGCUGUGCGGACCUGGCCCAUUAAGAGGCCUCAGUGGGAGAAGGGCUAAAAAGAGCCUGAGGUCAUGCGGUUGGACACUG,0.678
GAGGAGGCAGCUGUUGCAAUCAAGGCCAUGGCAAAAUACUGGCUCCCAGGGUGGCGGUGGUGGCAGCAGUGAUCCUCUGAACCUGCAGAGGCCCCCUCCCCGAGCCUGGC,0.321
UCUAAAUUUAUAUGUUGAAAUGCUACCUUUUUUAAAAUAAGAAACUAAAUAAAAUUAUUUUACUAUCGUGAUUUGUGUUUUUUUUUCCCACGUCUUCAUUUUUCUGUCAU,1.86
GAGUGGCCAUUUCCUUACCUUUGAUCCCUGUAAAGCAGAAAGGACUCCUUUGACAGGCGACAAACUACUGUGGUGAGCAGAAUGAUUUCCUUUUUCAAGACAACACCUGC,0.552
UGGCACUCGCUGAAGAAUCUGGAAGGUUGCGGUUUGCUCUUCCAGUGUUCGGGGGCCUCUGGCUGCUGAAGGAUUCGGUCUACCACGGAGGGCUGUGCUGUUAGGCUGCA,1.31

# Study 2 — cell line: HEK-293T/ACE2; tested at: concentration not given; time: 16 (unit not given); baseline: vehicle
SMILES,viability
COc1ccc(CN(C(=O)[C@@H](N)Cc2c(C)cc(C(N)=O)cc2C)[C@@H](C)c2nc(-c3ccccc3)c[nH]2)cc1C(=O)O,97.5%
CC(=O)Nc1ccc(O)cc1,99%
C[C@H](Cn1cnc2c(N)ncnc21)OCP(=O)(O)O,95.7%
Nc1ncn([C@H]2C[C@H](O)[C@@H](CO)O2)c(=O)n1,97.7%

# Study 3 — method: universal PBM; form: double-stranded DNA, one strand shown; medium: in vitro; tested at: not given; reading: higher = stronger binding
# Target: Sal-like protein 4, full length isoform B (SALL4, Homo sapiens, UniProt Q9UJQ4-2, residues 1-616)
# Setting: 8-mer, flanks averaged, mean of replicates
# Construct (chain): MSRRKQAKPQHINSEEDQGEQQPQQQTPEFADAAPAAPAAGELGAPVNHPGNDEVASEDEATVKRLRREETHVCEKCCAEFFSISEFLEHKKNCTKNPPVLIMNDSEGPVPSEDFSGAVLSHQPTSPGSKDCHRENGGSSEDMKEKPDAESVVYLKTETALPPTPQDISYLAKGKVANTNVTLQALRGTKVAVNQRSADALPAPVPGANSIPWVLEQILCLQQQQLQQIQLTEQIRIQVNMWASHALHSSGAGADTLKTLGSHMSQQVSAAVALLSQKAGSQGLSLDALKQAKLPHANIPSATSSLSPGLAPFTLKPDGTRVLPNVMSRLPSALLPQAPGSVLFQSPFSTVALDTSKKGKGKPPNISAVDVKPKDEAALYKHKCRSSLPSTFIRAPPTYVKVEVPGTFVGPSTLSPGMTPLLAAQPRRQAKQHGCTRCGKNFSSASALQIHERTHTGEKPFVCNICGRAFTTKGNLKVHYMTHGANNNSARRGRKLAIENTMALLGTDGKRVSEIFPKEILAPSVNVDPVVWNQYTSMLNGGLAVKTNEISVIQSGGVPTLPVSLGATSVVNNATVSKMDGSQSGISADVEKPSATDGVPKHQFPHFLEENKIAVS
Oligonucleotide,E-score
ATTTCGAG,0.124
CGGTCTCA,-0.0638
CCGCTAGG,-0.176
CCCCGGTA,-0.29
CTTTTGGA,0.00074
ATAATACA,0.391
TCCCCCAA,-0.152
CCACGTCC,-0.237

# Study 4 — read-out: enzyme activity; action: inhibitor; tested at: 20 µM; setting: hit confirmation
# Target: Replicase polyprotein 1ab, main protease (rep, Severe acute respiratory syndrome coronavirus 2, UniProt P0DTD1)
Compound,inhibition [%]
NCc1c[nH]c(=S)n1[C@H]1CCc2c(F)cc(F)cc2C1,57.3
NCC1(CC(=O)O)CCCCC1,-19.5
CC(=O)Oc1ccccc1C(=O)Nc1ncc([N+](=O)[O-])s1,-13.9

# Study 5 — method: competition protein-binding microarray; form: double-stranded DNA, one strand shown; medium: in vitro; tested at: 2 µM; with: Pho4 competitor, 0.05 µM; reading: higher = stronger binding; all sequences stand within: … GTCTTGATTCGCTTGACGCTGCTG
# Target: Centromere-binding protein 1, full length, His-tagged (CBF1, Saccharomyces cerevisiae, UniProt P17106, residues 1-351)
# Sequence of UniProt P17106 (whole entry, looked up): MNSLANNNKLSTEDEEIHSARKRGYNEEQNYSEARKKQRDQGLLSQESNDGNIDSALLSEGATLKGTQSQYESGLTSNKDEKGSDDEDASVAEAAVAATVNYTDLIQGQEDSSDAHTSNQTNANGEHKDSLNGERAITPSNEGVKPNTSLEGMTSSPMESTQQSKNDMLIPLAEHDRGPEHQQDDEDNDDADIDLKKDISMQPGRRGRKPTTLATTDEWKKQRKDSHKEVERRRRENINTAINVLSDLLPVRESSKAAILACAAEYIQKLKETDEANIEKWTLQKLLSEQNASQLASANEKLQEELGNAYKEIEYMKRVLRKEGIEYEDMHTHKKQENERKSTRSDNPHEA
# Setting: whole 60-bp probe, lowest competitor level
Oligonucleotide,fluorescence intensity
CTTTCCCGATCTTGAACTGTGGGTGTAGCACATTTG,78.3 a.u.
CTTTCCCGATCTTGTCACCCTACTTTAGCACATTTG,70 a.u.
ACATGTACCAAGTAACCTTTTCCAATAAAATTTCAA,92.7 a.u.
CGTTCCTGGAACAGACGCGTGGGACATTTAGCGGGG,87.5 a.u.
CCGTCAGATAATATATCCCCGTATAGGTTTGGTGCC,77.9 a.u.

# Study 6 — method: protein-binding microarray; form: double-stranded DNA, one strand shown; medium: in vitro; tested at: not given; reading: higher = stronger binding
# Target: Hepatocyte nuclear factor 3-beta, forkhead domain (FOXA2, Homo sapiens, UniProt Q9Y261, residues 142-269)
# Setting: k-mer, scored over probes, only values ≥0.25
# Residues (chain): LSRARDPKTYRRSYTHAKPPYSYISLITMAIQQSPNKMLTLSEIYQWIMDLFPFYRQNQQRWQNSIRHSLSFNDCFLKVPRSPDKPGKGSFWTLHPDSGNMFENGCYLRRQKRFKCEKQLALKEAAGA
Oligonucleotide,E-score
GAACAATA,0.264
AGTATGAA,0.281
CTCAAACA,0.288

# Study 7 — action: inhibitor; tested at: 20 µM
# Target: Replicase polyprotein 1ab, nsp13 helicase (rep, Severe acute respiratory syndrome coronavirus 2, UniProt P0DTD1)
SMILES,inhibition [%]
CS(=O)(=O)OC[C@H](O)[C@@H](O)COS(C)(=O)=O,6.53
CC(C)n1nccc1-c1ncccc1COc1cccc(O)c1C=O,0.78
O=C(Nc1ccccc1Br)N[C@@H]1CCN(c2ccc(C(F)(F)F)cn2)C1,10.7
CCCC(=O)c1cc(F)ccc1OCC(O)CNC(C)(C)C (centres unmarked),-5.04
CC1(CN2CCC(n3c(=O)[nH]c4ccccc43)CC2)OCc2ccccc2-n2cccc21 (centres unmarked),-1.96
C[C@@]1(O)[C@H](O)[C@@H](CO)O[C@H]1n1cnc2c(NC3CCCC3)nc(Cl)nc21,-3.65
Cc1ccc(C(=O)N(CCCN)[C@@H](c2nc3cc(Cl)ccc3c(=O)n2Cc2ccccc2)C(C)C)cc1,5.99
CCN1CCC(n2cc(CNc3cc(Cl)c4ncc(C#N)c(Nc5ccc(F)c(Cl)c5)c4c3)nn2)CC1,8.91
O=C(O)Cn1nnc(-c2cc(N3CCC(Oc4cc(F)ccc4Br)CC3)no2)n1,2.56
CC(C)(C)C#Cc1cc(N(C(=O)[C@H]2CC[C@H](C)CC2)[C@H]2CC[C@H](O)CC2)c(C(=O)O)s1,4.07
CO[C@@H]1[C@H](O)[C@@H](CO)O[C@H]1n1cnc2c(NC3CCCCC3)ncnc21,4.79
O=C(N[C@H]1CN2CCC1CC2)c1c[nH]c2ccsc2c1=O,7.08
CC(=O)CC(c1ccccc1)c1c(O)c2ccccc2oc1=O (centres unmarked),-24
CNC(=O)[C@@H](c1ccccc1)N1CCc2cc(OC)c(OC)cc2[C@@H]1CCc1ccc(C(F)(F)F)cc1,2.63
Cc1cc(-c2nc(-c3ccc(OC(F)(F)F)cc3)no2)nn1Cc1ccnc(N2CCN(C3CC3)CC2)c1,4.14
CC(C)(C)c1cc(NC(=O)Nc2ccc(-c3cn4c(n3)sc3cc(OCCN5CCOCC5)ccc34)cc2)no1,8.17
N#Cc1ncccn1,-0.08
Nc1cc(Cl)c(N=C2NCCN2)c(Cl)c1,5.97
CC(C)Oc1ccc(-c2nn([C@@H](C)c3oc4ccc(F)cc4c(=O)c3-c3cccc(F)c3)c3ncnc(N)c23)cc1F,-0.27
CC(C)(c1ccc(O)cc1)c1ccc(O)cc1,4.97
Cc1c(NC(=O)c2cccnc2)c(=O)n(-c2ccccc2)n1C,1.88
CCOC(=O)c1ccc(O)cc1,0.89
CN[C@@H]1[C@@H](O[C@H]2O[C@H](CO)[C@@H](N)[C@H](O)[C@H]2O)O[C@H]2C[C@@H](N)[C@@H](O[C@H]3[C@H](O)[C@@H](O)[C@H](N)C[C@@H]3N)O[C@@H]2[C@@H]1O,13.1
CC[C@H]1OC(=O)C[C@@H](O)[C@H](C)[C@@H](O[C@@H]2O[C@H](C)C[C@H](N(C)C)[C@H]2O)[C@@H](CC=O)C[C@@H](C)C(=O)/C=C/[C@]2(C)O[C@H]2[C@@H]1C,1.88
COc1ccc(S(=O)(=O)N(CCO)c2ccccc2CN(C)C/C=C/c2ccc(Cl)cc2)cc1,8.53

# For quick reference, copied from above (study 3):
Oligonucleotide,E-score
CCCCGGTA,-0.29
CCACGTCC,-0.237
CCGCTAGG,-0.176
TCCCCCAA,-0.152
CGGTCTCA,-0.0638
CTTTTGGA,0.00074
ATTTCGAG,0.124
ATAATACA,0.391
